{"data": "Results pooled from the literature", "note": "Protocols differ between the studies behind these lines. “And” joins repeats or separate records; there may be more than shown. Numbers after ± are the reported error."}
{"SMILES": "COc1ccccc1[C@H](Cn1c(=O)n(C(C)(C)C(=O)O)c(=O)c2c(C)c(-c3ncco3)sc21)OC1CCOCC1", "test": "[1-13C]acetate infusion, isotopomer analysis", "test system": "overweight or obese healthy men, plasma VLDL-TG palmitate", "setting": "oral, 50 mg single dose, 5 h post-dose, added: oral fructose", "endpoint": "fractional hepatic DNL", "value": "5.18 % new palmitate"}
{"SMILES": "O=S1(=O)CC(S(=O)(=O)Nc2ccc(Cl)c(Cl)c2)c2ccccc21 (centres unmarked)", "test": "CoA-CPM signal reduction, CPM fluorescence thiol", "test system": "cell-free biochemical", "setting": "assay interference counter-screen, added: CoA replacing acetyl-CoA", "endpoint": "IC50", "value": "> 125 µM"}
{"SMILES": "CO[C@H]1C[C@@H]2CC[C@@H](C)[C@@](O)(O2)C(=O)C(=O)N2CCCC[C@H]2C(=O)O[C@H]([C@H](C)C[C@@H]2CC[C@@H](O)[C@H](OC)C2)CC(=O)[C@H](C)/C=C(\\C)[C@@H](O)[C@@H](OC)C(=O)[C@H](C)C[C@H](C)/C=C/C=C/C=C/1C", "test": "oral glucose tolerance test", "test system": "healthy adult horses", "setting": "dose not given, 60 min, baseline before treatment", "endpoint": "blood glucose", "value": "148 mg/dL"}
{"SMILES": "O=C(CS(=O)(=O)c1cccc2nsnc12)Nc1cccc(Br)c1", "test": "CoA-CPM signal reduction, CPM fluorescence thiol", "test system": "cell-free biochemical", "setting": "assay interference counter-screen, added: CoA replacing acetyl-CoA", "endpoint": "IC50", "value": "> 125 µM"}
{"SMILES": "O=C(COc1ccc(Cl)cc1)NC12CC(c3nnc([C@H]4C[C@@H](OC(F)(F)F)C4)o3)(C1)C2", "test system": "healthy human, PBMC", "setting": "260 mg once daily, day 15, 24 h post-dose, median, added: sodium arsenite ex vivo", "how to read": "relative to: baseline", "endpoint": "CHAC1 mRNA change", "value": "-75.6%"}
{"SMILES": "O=C(O)CNC(=O)Cc1ccccc1", "test system": "ventricular cardiomyocytes, C57BL/6 mouse", "setting": "dose not given, 0.56 s", "endpoint": "sarcomere length", "value": "1.62 µm"}
{"SMILES": "N#Cc1ccc2c(c1)[C@H]1CCCN(C(=O)c3ccc4[nH]cnc4c3)[C@H]1C2", "test system": "T2DM patients with overweight or obesity, urine", "setting": "oral, 10 mg, day 14, 0-24 h, multiple dosing, adjusted geometric mean", "how to read": "relative to: baseline day -1, -24-0 h", "endpoint": "total urinary corticosteroid excretion", "value": "223%"}
{"SMILES": "OC(CCN1CCCCC1)(c1ccccc1)C1CC2C=CC1C2 (centres unmarked)", "test": "resting-state EEG", "test system": "healthy elderly humans", "setting": "oral, 2 mg, eyes open, LS mean", "how to read": "relative to: baseline", "endpoint": "change in EEG Beta2-power Fz-Cz", "value": "4.7%"}
{"SMILES": "CCCCc1nc2c(N)nc3ccccc3c2n1Cc1ccc(CN)cc1", "test": "CD86 expression, flow cytometry", "test system": "CD14+ myeloid cells in PBMC, human", "setting": "100 or 1000 nM", "endpoint": "CD86 induction", "value": "increased"}
{"SMILES": "CO[C@H]1CC[C@H](N2C(=O)CNc3ncc(-c4ccc(C(C)(C)O)nc4)nc32)CC1", "test": "flow cytometry", "test system": "stimulated B cells, human, blood", "setting": "45 mg single dose, 3 h, median", "how to read": "relative to: baseline", "endpoint": "pS6RP change from baseline", "value": "-79.8%"}
{"SMILES": "O=[N+]([O-])c1c(SCCO)ccc2nsnc12", "test": "CoA-CPM signal reduction, CPM fluorescence thiol", "test system": "cell-free biochemical", "setting": "assay interference counter-screen, added: CoA replacing acetyl-CoA", "endpoint": "IC50", "value": "> 125 µM"}
{"SMILES": "COc1ccc(-c2ncn(S(=O)(=O)c3cc(C(F)(F)F)cc(C(F)(F)F)c3)n2)cc1", "test": "HPLC-MS", "setting": "pH 10.2, added: 50 mM N-α-acetyl-lysine", "endpoint": "pseudo-first-order rate constant", "value": "1.3 h⁻¹"}
{"SMILES": "[Cl-].[Cl-].[Ru+2].c1cnc2c(c1)c1nc[nH]c1c1cccnc12.c1cnc2c(c1)ccc1cccnc12.c1cnc2c(c1)ccc1cccnc12", "test system": "air-saturated acetonitrile", "how to read": "relative to: Ru(bpy)3(PF6)2", "endpoint": "singlet oxygen quantum yield", "value": 0.56}
{"SMILES": "CN[C@@H]1COc2c(S(=O)(=O)NC(=O)Nc3c4c(cc5c3CCC5)CCC4)cnn2C1", "test": "measured: IL-1β", "test system": "human participants, whole blood ex vivo", "setting": "150 mg single dose, 48 h, added: LPS/ATP", "how to read": "relative to: baseline", "endpoint": "inhibition", "value": "52.3%"}
{"SMILES": "COc1cccc(CC2NC(=O)CN(Cc3ccccc3)C2=O)c1I (centres unmarked)", "test system": "rat spinal nerve ligation", "setting": "intraperitoneal, 3 mg/kg", "endpoint": "onset of significant effect", "value": "1 h"}
{"SMILES": "CSCCNc1nc(SCCC(F)(F)F)nc2c1ncn2[C@@H]1O[C@H](COP(=O)(O)OP(=O)(O)C(Cl)(Cl)P(=O)(O)O)[C@@H](O)[C@H]1O", "test": "ADP-induced platelet aggregation, LTA", "test system": "human patients, platelet-rich plasma", "setting": "dose not given, 1 h, added: ADP 5 µM", "endpoint": "inhibition", "value": "41.7 ± 22.2%"}
{"SMILES": "Cc1n[nH]c2ccc(-c3cc(OC[C@@H](N)Cc4ccccc4)cnc3-c3ccoc3)cc12", "test": "kinase binding, competitor, MIB/MS competition, measured: KIN3", "test system": "Candida albicans cell lysate", "setting": "1 µM", "how to read": "relative to: DMSO", "endpoint": "log2 fold change", "value": 0.0107}
{"SMILES": "Cc1ncsc1-c1ccc(CNC(=O)[C@@H]2C[C@@H](O)CN2C(=O)[C@@H](NC(=O)C2(C#N)CC2)C(C)(C)C)cc1", "test": "flow cytometry", "test system": "bone marrow-derived macrophages, UT-/-, mouse", "setting": "dose not given", "endpoint": "F4/80+ cells", "value": "0.04%"}
{"SMILES": "C[C@H](Oc1ccc(Br)cc1-c1ccon1)C(=O)O", "test": "handgrip dynamometry", "test system": "healthy human males", "setting": "600 mg once daily, multiple doses", "how to read": "relative to: placebo", "endpoint": "maximum voluntary grip contraction", "value": "-2.36 kg"}
{"SMILES": "C[C@@H](NC(=O)N1C(=O)[C@H](Cc2ccnc(N)c2)[C@H]1C(=O)O)C1CCCCC1", "test system": "human, plasma", "setting": "continuous intravenous infusion, 1.0 mg/kg/h, days 1 to 6 of 5-day infusion, mean", "endpoint": "maximum prothrombin time", "value": "13.4 s"}
{"SMILES": "Cc1oncc1C(=O)Nc1ccc(C(F)(F)F)cc1", "test": "measured: dihydroorotate", "test system": "female CD-1 mice, blood", "setting": "oral, 30 mg/kg daily, 8 h after dose 3", "endpoint": "DHO concentration", "value": "32.8 ± 4.71 µM"}
{"SMILES": "Cn1cc(Nc2nccc(-c3ccc4c(c3)CN(C3COC3)CC[C@H]4NC(=O)c3cn(C(C)(C)C)nn3)n2)cn1", "test": "measured: Colorectal Cancer Metastasis Signaling", "test system": "splenic B cells, mouse", "setting": "in vivo, 30 mg/kg, IgD-activated B cells", "how to read": "relative to: vehicle, positive = activation", "endpoint": "pathway activation z-score", "value": 2.75}
{"SMILES": "N#Cc1ccn2c(-c3ccncc3)c(-c3ccc(F)cc3)nc2c1", "test": "kinase binding, competitor, MIB/MS competition, measured: IKS1", "test system": "Candida albicans cell lysate", "setting": "100 nM", "how to read": "relative to: DMSO", "endpoint": "log2 fold change", "value": -0.459}
{"SMILES": "Cn1ccnc1-c1noc(N)n1", "test": "CoA-CPM signal reduction, CPM fluorescence thiol", "test system": "cell-free biochemical", "setting": "assay interference counter-screen, added: CoA replacing acetyl-CoA", "endpoint": "IC50", "value": "> 125 µM"}
{"SMILES": "Cl.N[C@@H](Cc1ccc(Oc2nnc(-c3ccccc3)nn2)cc1)C(=O)O", "test": "iEDDA cycloaddition", "test system": "aqueous DMSO 25 %", "setting": "37 °C, added: TCO-OH 2.2 mM", "endpoint": "kobs", "value": "0.15 s⁻¹"}
{"SMILES": "C=CCn1c(=O)c2cnc(Nc3ccc(N4CCN(C)CC4)cc3)nc2n1-c1ccc2c(n1)[C@@](O)(CC)CC2", "test system": "OVCAR-3 xenograft, NOD/SCID mouse", "setting": "90 mg/kg once daily, :3", "endpoint": "tumour growth inhibition", "value": "96.1%"}
{"SMILES": "Cn1cc([C@H]2C[C@H]3CSC(N)=N[C@@]3(c3ccc(F)cc3F)CO2)cn1", "test": "measured: Aβx-40", "test system": "Mus musculus wild-type, cerebrospinal fluid", "setting": "subcutaneous, 50 mg/kg, 6 h", "endpoint": "Aβ40 level", "value": "0.29 ng/mL"}
{"SMILES": "C[C@H]1C[C@H]2CSC(N)=N[C@@]2(c2nc(NC(=O)c3ccc(OC(F)F)cn3)cs2)CO1", "test": "measured: total Aβ", "test system": "healthy adults, plasma", "setting": "40 mg single dose, 8 h post-dose", "how to read": "relative to: placebo", "endpoint": "percent change from baseline", "value": "-47.8%"}
{"SMILES": "CC(C)NCC(O)c1ccc(O)c(O)c1 (centres unmarked)", "test system": "ventricular cardiomyocytes, C57BL/6 mouse", "setting": "dose not given, 0.388 s", "endpoint": "sarcomere length", "value": "1.72 µm"}
{"SMILES": "CN(C)C(=O)c1cc2cnc(Nc3ccc(N4CCNCC4)cn3)nc2n1C1CCCC1", "test": "RNA-seq GSEA, measured: HALLMARK_ALLOGRAFT_REJECTION", "test system": "MB002 tumour", "setting": "concentration not given, in vivo", "how to read": "relative to: vehicle, direction not given", "endpoint": "normalized enrichment score", "value": -0.986}
{"SMILES": "CCCCCCCCCC(=O)N[C@@H](Cc1c[nH]c2ccccc12)C(=O)N[C@H](CC(N)=O)C(=O)N[C@@H](CC(=O)O)C(=O)N[C@@H]1C(=O)NCC(=O)N[C@@H](CCCN)C(=O)N[C@@H](CC(=O)O)C(=O)N[C@H](C)C(=O)N[C@@H](CC(=O)O)C(=O)NCC(=O)N[C@H](CO)C(=O)N[C@@H]([C@H](C)CC(=O)O)C(=O)N[C@@H](CC(=O)c2ccccc2N)C(=O)O[C@@H]1C", "test system": "mammalian membrane liposomes", "setting": "50 µg/mL, 100 min", "endpoint": "calcein leakage", "value": "~6%"}
{"SMILES": "COc1ncc(-c2nc3c(n2C(C)C)[C@H](c2ccc(Cl)cc2)N(c2cc(Cl)cn(C)c2=O)C3=O)c(OC)n1", "test": "antileukemic activity, measured: treatment failure, indeterminate cause", "test system": "human, acute myeloid leukaemia", "setting": "20 to 30 mg, low-dose", "endpoint": "best overall response", "value": "28.6%"}
{"SMILES": "CCCC(CCC)C(=O)Oc1cccc(C(O)CCN)c1.O=CO (centres unmarked)", "test": "OCT at 500 µm from nerve head", "test system": "Abca4-/-Rdh8-/- mice, photic damage", "setting": "intraperitoneal, 10 mg/kg, 7 days, added: 10,000 lx light, 30 min", "endpoint": "ONL thickness", "value": "58.9 µm and 55.4 µm and 59.2 µm and 59.4 µm and 55.8 µm"}
{"SMILES": "O=S1(=O)CC(N2CCCCC2)c2ccccc21 (centres unmarked)", "test": "CoA-CPM signal reduction, CPM fluorescence thiol", "test system": "cell-free biochemical", "setting": "assay interference counter-screen, added: CoA replacing acetyl-CoA", "endpoint": "IC50", "value": "> 125 µM"}
{"SMILES": "NC(=O)c1cnc2[nH]ccc2c1N[C@@H]1[C@@H]2CC3C[C@H]1C[C@@](O)(C3)C2", "test": "flow cytometry", "test system": "Japanese healthy men, blood", "setting": "oral, 100 mg twice daily, 72 h after day 7 dose", "how to read": "relative to: baseline", "endpoint": "CD8+CD28+ naive T-cell change", "value": "-4.38%"}
{"note": "For quick reference, copied from above:"}
{"SMILES": "C[C@H](Oc1ccc(Br)cc1-c1ccon1)C(=O)O", "test": "handgrip dynamometry", "test system": "healthy human males", "setting": "600 mg once daily, multiple doses", "how to read": "relative to: placebo", "endpoint": "maximum voluntary grip contraction", "value": "-2.36 kg"}
{"SMILES": "N#Cc1ccc2c(c1)[C@H]1CCCN(C(=O)c3ccc4[nH]cnc4c3)[C@H]1C2", "test system": "T2DM patients with overweight or obesity, urine", "setting": "oral, 10 mg, day 14, 0-24 h, multiple dosing, adjusted geometric mean", "how to read": "relative to: baseline day -1, -24-0 h", "endpoint": "total urinary corticosteroid excretion", "value": "223%"}
{"SMILES": "COc1ccccc1[C@H](Cn1c(=O)n(C(C)(C)C(=O)O)c(=O)c2c(C)c(-c3ncco3)sc21)OC1CCOCC1", "test": "[1-13C]acetate infusion, isotopomer analysis", "test system": "overweight or obese healthy men, plasma VLDL-TG palmitate", "setting": "oral, 50 mg single dose, 5 h post-dose, added: oral fructose", "endpoint": "fractional hepatic DNL", "value": "5.18 % new palmitate"}
